Experimental data of several laboratories.
Numbered parts are unrelated; each lists some results of a single study. Numbers after ± are the reported error.
Sequence of UniProt Q06124 (whole entry, looked up): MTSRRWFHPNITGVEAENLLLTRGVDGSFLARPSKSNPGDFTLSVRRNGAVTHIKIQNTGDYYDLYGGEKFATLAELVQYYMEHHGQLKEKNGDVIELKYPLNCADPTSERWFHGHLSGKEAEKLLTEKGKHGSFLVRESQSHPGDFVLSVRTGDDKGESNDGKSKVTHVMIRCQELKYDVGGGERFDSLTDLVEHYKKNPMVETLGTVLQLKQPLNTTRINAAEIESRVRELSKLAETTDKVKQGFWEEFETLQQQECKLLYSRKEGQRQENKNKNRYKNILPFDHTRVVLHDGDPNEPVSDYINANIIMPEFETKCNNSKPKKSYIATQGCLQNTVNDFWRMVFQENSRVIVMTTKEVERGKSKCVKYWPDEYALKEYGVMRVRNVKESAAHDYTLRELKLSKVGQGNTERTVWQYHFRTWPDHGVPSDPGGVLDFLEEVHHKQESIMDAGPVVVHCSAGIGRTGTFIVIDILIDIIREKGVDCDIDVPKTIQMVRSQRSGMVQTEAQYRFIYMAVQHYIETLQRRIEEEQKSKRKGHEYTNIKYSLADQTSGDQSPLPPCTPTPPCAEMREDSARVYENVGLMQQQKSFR

Series 1
Cell line: MCF10
Time: 72 h
SMILES	CC50 [µM]
O=C(NCc1ccccc1)c1cn(Cc2ccc(C(F)(F)F)cc2)c2ccc(Oc3ccccc3)cc2c1=O	18.64 ± 0.09
O=C(NCc1ccc(C(F)(F)F)cc1)c1cn(Cc2ccc(F)cc2)c2ccc(Oc3ccccc3)cc2c1=O	28.6 ± 1.58
O=C(NCc1ccc(Cl)cc1)c1cn(Cc2ccc(Cl)cc2)c2ccc(Oc3ccccc3)cc2c1=O	12.4 ± 5.54

Single results of other studies
SMILES	target or system	test	test system	conditions	quantity	value
CCOc1c([C@H](C)n2nc(C)c3c(N)ncnc32)cc(Cl)c(F)c1[C@@H]1CNC(=O)C1	–	–	patients, monotherapy	oral, 30 mg once daily, cycle 1 day 15	half-life	8 ± 0.7 h
C[C@H](Oc1nccc(-c2noc([C@@]3(C)CCCc4sc(N)c(C#N)c43)n2)n1)[C@@H]1CCCN1C	Caco-2	–	–	–	Papp (A to B)	11 ×10⁻⁶ cm/s
C=CS(=O)(=O)Oc1ccccc1	Tyrosine-protein phosphatase non-receptor type 11 (PTPN11, Homo sapiens, UniProt Q06124)	intact protein LC-MS	–	20 µM, 60 min, protein 10 µM	covalent adduct formation	21%
COCCOc1cnc2ccn([C@H](C)c3nnc4c(F)cc(-c5cnn(C)c5)cn34)c(=O)c2c1	–	–	patients, plasma	oral, 25 mg once daily, day 1	half-life	6 h
C[C@H]1CN(C)CCCN1c1nccc(-c2noc([C@@]3(C)CCCc4sc(N)c(C#N)c43)n2)n1	Caco-2	–	–	–	Papp (A to B)	21 ×10⁻⁶ cm/s
